{"data": "Experimental data gathered from unrelated publications", "note": "Each line is one published result; not all experiments were run side by side."}
{"Compound": "O=C(c1ccc(Cl)cc1)N1CCCC2=CC3CC(CN4CCCCC34)C21 (stereo not shown)", "organism": "vesicular stomatitis virus", "assay": "pseudovirus entry", "setting": "VSV G pseudovirus", "EC50": "214 µM"}
{"Compound": "CCC(=C(c1ccc(Cl)cc1)c1ccc(OCCN2CCCC2)cc1)c1ccccc1", "organism": "influenza A virus H1N1", "assay": "cytopathic effect, visual CPE", "system": "MDCK", "EC50": "0.29 µg/mL"}
{"Compound": "O=C1/C(=N\\NC(=S)NN=Cc2cccs2)c2ccccc2N1Cc1ccccc1", "organism": "vesicular stomatitis virus", "assay": "viral replication", "system": "HeLa", "EC50": "> 4 µM"}
{"Compound": "Cc1ccc(NC(=O)CN2CCCC3=CC4CC(CN5CCCCC45)C32)c(Cl)c1 (stereo not shown)", "organism": "vesicular stomatitis virus", "assay": "pseudovirus entry", "setting": "VSV G pseudovirus", "EC50": "87.9 µM"}
{"Compound": "CCC(=C(c1ccc(Cl)cc1)c1ccc(OCCN(C)C)cc1)c1ccc(OC)cc1", "organism": "influenza A virus H1N1", "assay": "cytopathic effect, visual CPE", "system": "MDCK", "EC50": "> 4.2 µg/mL"}
{"Compound": "CCCCCCCCCC(=O)OCC1OC(n2cc(C)c(=O)[nH]c2=O)CC1N(C)C (stereo not shown)", "organism": "vesicular stomatitis virus", "assay": "viral replication", "system": "HeLa", "EC50": "> 0.23 µM"}
{"Compound": "O=C(CN1CCCC2=CC3CC(CN4CCCCC34)C21)Nc1cc(Br)ccc1F (stereo not shown)", "organism": "vesicular stomatitis virus", "assay": "pseudovirus entry", "setting": "VSV G pseudovirus", "EC50": "66.8 µM"}
{"Compound": "CCC(=C(c1ccc(Cl)cc1)c1ccc(OCCN2CCCCC2)cc1)c1ccc(OC)cc1", "organism": "influenza A virus H1N1", "assay": "cytopathic effect, visual CPE", "system": "MDCK", "EC50": "> 3.2 µg/mL"}
{"Compound": "O=C(Cc1csc2nc(-c3ccc(Br)cc3)cn12)NN=C1CCCC1", "organism": "vesicular stomatitis virus", "assay": "viral cytopathic effect", "system": "HEL", "EC50": "> 100 µg/mL"}
{"Compound": "Cc1cn(C2CC(N(C)C)C(CO)O2)c(=O)[nH]c1=O (stereo not shown)", "organism": "vesicular stomatitis virus", "assay": "viral replication", "system": "HeLa", "EC50": "> 0.37 µM"}
{"note": "Some of these lines once more:"}
{"Compound": "CCCCCCCCCC(=O)OCC1OC(n2cc(C)c(=O)[nH]c2=O)CC1N(C)C (stereo not shown)", "organism": "vesicular stomatitis virus", "assay": "viral replication", "system": "HeLa", "EC50": "> 0.23 µM"}
